Assay results collected from several papers.
A part holds a random share of what one study measured.

Sample 1
Target: Centromere-binding protein 1, full length, N-terminal tag (CBF1, Saccharomyces cerevisiae, UniProt P17106, residues 1-351)
Chain of UniProt P17106 (whole entry, looked up): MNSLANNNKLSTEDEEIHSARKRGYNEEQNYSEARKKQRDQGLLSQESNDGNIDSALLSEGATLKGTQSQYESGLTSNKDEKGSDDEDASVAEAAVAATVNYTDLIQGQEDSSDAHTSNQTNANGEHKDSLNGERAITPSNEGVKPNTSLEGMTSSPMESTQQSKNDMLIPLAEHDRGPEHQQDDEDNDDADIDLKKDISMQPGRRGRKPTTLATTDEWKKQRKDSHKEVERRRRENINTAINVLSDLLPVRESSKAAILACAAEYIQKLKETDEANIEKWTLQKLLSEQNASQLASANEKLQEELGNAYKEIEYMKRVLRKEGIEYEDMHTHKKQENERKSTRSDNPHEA
Technique: protein-binding microarray
Form: double-stranded DNA, one strand shown
Matrix: in vitro
Concentration: 0.8 µM
Setting: whole 60-bp probe, no competitor
Reading: higher = stronger binding
| Strand | fluorescence intensity [a.u.] |
| --- | --- |
| CTAAAAGAAGAAATAGATTGCTTTGCGTGAAATTTCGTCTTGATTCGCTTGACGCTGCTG | 523 |
| CTATATTTAACGCGTCACCAAATATTAAGTTTGTTCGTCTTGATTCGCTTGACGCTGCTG | 500 |
| GAAGAGTTTGCCGGTGGTGCGAACAATAGAGCGTAGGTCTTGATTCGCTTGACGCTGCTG | 507 |
| CTAATATATGGTAACCACCAGAGAACTTGTTATTTCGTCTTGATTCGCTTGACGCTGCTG | 507 |
| CCTAACTACTATATACTCGTGAAATAGCTTCGTACAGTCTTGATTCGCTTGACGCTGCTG | 561 |
| GAAAACGATGGACGTGGTGTGTGAATGTGCTACTAGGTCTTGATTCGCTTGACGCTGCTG | 511 |

Sample 2
Target: Histone acetyltransferase KAT6A, both winged helices, GST fusion (KAT6A, Homo sapiens, UniProt Q92794, residues 1-181)
Technique: protein binding microarray
Form: double-stranded DNA, one strand shown
Matrix: in vitro
Concentration: not given
Setting: 8-mer, flanks averaged, mean of 2 arrays, mostly near background
Baseline: not given
Reading: higher = stronger binding
Target sequence (chain): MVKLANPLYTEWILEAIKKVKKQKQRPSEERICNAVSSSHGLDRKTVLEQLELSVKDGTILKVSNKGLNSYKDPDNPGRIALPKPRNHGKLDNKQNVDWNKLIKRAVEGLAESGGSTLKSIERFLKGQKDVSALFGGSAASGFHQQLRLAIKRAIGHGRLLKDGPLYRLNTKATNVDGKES
| Strand | E-score |
| --- | --- |
| CCGGGCCG | 0.305 |
| CCATTTAC | -0.0429 |
| CAAGACCC | -0.0803 |
| AAAGATTA | -0.00308 |

Sample 3
Target: Sal-like protein 4, full length isoform A (SALL4, Homo sapiens, UniProt Q9UJQ4, residues 1-1053)
Chain of UniProt Q9UJQ4 (whole entry, looked up): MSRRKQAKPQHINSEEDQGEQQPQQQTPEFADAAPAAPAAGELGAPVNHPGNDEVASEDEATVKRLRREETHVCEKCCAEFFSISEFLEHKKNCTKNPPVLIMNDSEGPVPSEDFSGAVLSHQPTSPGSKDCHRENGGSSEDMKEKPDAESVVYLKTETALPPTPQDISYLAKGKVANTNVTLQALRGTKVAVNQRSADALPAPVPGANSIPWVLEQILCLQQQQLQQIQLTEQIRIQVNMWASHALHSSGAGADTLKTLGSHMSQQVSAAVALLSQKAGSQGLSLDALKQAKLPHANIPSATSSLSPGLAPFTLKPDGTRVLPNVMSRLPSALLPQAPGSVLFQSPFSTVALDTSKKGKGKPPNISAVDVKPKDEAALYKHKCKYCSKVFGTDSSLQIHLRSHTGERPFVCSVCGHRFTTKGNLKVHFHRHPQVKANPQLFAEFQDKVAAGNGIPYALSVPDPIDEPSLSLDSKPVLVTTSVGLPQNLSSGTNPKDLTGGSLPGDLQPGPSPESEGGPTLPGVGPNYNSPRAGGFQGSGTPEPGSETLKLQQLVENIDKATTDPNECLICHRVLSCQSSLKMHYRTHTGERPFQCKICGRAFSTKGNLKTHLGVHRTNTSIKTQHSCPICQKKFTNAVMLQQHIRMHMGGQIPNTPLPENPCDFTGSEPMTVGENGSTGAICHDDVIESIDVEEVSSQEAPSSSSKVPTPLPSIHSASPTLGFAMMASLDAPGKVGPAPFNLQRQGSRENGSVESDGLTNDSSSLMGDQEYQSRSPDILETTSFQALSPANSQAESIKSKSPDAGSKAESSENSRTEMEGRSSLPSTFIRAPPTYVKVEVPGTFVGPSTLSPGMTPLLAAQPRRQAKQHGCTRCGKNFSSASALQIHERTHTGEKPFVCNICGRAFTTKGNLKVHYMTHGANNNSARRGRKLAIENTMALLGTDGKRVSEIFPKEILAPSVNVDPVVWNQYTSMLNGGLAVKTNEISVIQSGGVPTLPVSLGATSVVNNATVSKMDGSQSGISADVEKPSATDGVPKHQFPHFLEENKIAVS
Technique: universal PBM
Form: double-stranded DNA, one strand shown
Matrix: in vitro
Concentration: 600 nM
Setting: 8-mer, flanks averaged, mean of replicates
Reading: higher = stronger binding
| Strand | E-score |
| --- | --- |
| AGACCTCC | -0.204 |
| AAGGGATT | 0.0363 |
| AATAATCG | 0.332 |
| CCTGAAGG | -0.151 |

Further values, each from its own experiment
| Substance | target | test | system | setting | scale | endpoint | result |
| --- | --- | --- | --- | --- | --- | --- | --- |
| PhoQ, residues 284 288 289 292 302 303 ALASRC | PhoP, residues 12 14 15 18 19 LHSVW (Escherichia coli, UniProt P23836) | Sort-seq, measured: YFP reporter | E. coli | PhoQ-PhoP variant library, together with: 10 µM Mg2+ | baseline: high Mg2+ state, higher = stronger signaling | fold induction | 3.05 |

Repeated from above (sample 3):
| Strand | E-score |
| --- | --- |
| AGACCTCC | -0.204 |
